# Measured values pooled from the literature.
# Protocols differ between the studies behind these lines. Several values in a cell are separate wells, animals, samples, runs or records. ± gives the spread as reported.
SMILES,assay,system,setting,how to read,quantity,result
O=C(/C=C/c1ccccc1)OCCCC[P+](c1ccccc1)(c1ccccc1)c1ccccc1,TBARS,energized rat liver mitochondria,"6 µM, together with: FeCl2/ascorbate",,lipid peroxidation inhibition,no effect
CC/C=C\C/C=C\C/C=C\C/C=C\C/C=C\CCCCOC(CC)C(=O)O (centres unmarked),,"APOE*3Leiden.CETP mice, high-fat/cholesterol diet","dose not given, 20 weeks",relative to: control,plasma MCP-1 change,-30%
CCCCCCOC(=O)Cc1c(C)n(C(=O)c2ccc(Cl)cc2)c2ccc(OC)cc12,hot plate test,BALB/c mice,"100 mg/kg, 0 min",,latency of nociceptive response,10.1 ± 0.38 s
"C=C1C(=O)OC2C1CCC1(C)OC13CC1OC1(C)C23 (single isomer, unassigned)",,"breast cancer RMK-1, outbred white rat","intraperitoneal, maximum tolerated dose, daily, 5 days",,tumour growth inhibition,59 to 88%
CC(=O)c1cnc(N)nc1N1CC[C@H]1c1nn2ccc(Cl)c2c(=O)n1-c1ccccc1,refers to: IFN-gamma,rat,"oral, 10 mg/kg, up to 8 h, together with: concanavalin A at 6.5 h",,inhibition,> 80% and 91%
COc1ccc(OC)c(C(=Cc2ccc(O)c(OC)c2)C(=O)NCCc2ccc(O)cc2)c1,refers to: tyrosine hydroxylase,"C57BL mice, MPTP/p Parkinson model, substantia nigra","75 mg/kg, 8 weeks",relative to: MPTP/p vehicle,TH-positive neuron number,increased
CC(C)C1=C(OC(=O)C(C)(C)C)C(=O)C2=C(C=C[C@H]3C(C)(C)CCC[C@]23C)C1=O,"oxygen radical absorbance capacity, fluorometric",,,,ORAC,0.826 Trolox equivalents
COc1ccc2c(c1)c(CC(=O)OCOC(C)=O)c(C)n2C(=O)c1ccc(Cl)cc1,hot plate test,BALB/c mice,"100 mg/kg, 30 min",,latency of nociceptive response,17.4 ± 0.86 s
CC(=O)[O-].O.O.[O-]c1ccc(Br)cc1C=NCCN1CCOCC1.[Zn+2],hydroxyl radical scavenging,,240 µM,,inhibition,54.6%
Cc1ncc2c(n1)CN(C(=O)Nc1nc(-c3cccs3)ccc1N)C2,,"wild type mouse, hippocampal CA1","oral, 1 mg/kg daily, 14 days",relative to: vehicle,total spine density increase,21%
CN1Cc2c(Cl)cc(Cl)cc2C(c2ccc(S(=O)(=O)NCCOCCOCCOCCNC(=O)C(O)C(O)C(=O)NCCOCCOCCOCCNS(=O)(=O)c3ccc(C4CN(C)Cc5c(Cl)cc(Cl)cc54)cc3)cc2)C1 (centres unmarked),,Sprague Dawley rats,"oral, 3 mg/kg, 16 h",,fecal water content,61 % by weight
CN(Cc1ccc(/C=C/C(=O)Nc2ccccc2N)cc1)CC12CC3CC(CC(C3)C1)C2,forced swim test,rat,"i.p., 0.1 mg/kg, 7 days",relative to: vehicle,immobility time reduction,17%
Cc1ccc(S(=O)(=O)N(CCc2nnc(S)o2)c2ccc(Cl)cc2)cc1,,rat,"75 mg/kg, 1 h, together with: carrageenan",,paw edema inhibition,19.4%
NS(=O)(=O)c1ccc(NC(=O)NN[C@@H]2O[C@H](CO)[C@@H](O)[C@H](O)[C@H]2O)cc1,,rabbit glaucoma model,"topical ocular, 2%, 2 h",,IOP reduction,~7 mm Hg
CC(C)[C@H](NC(=O)CN)C(=O)N[C@@H](CCCCN)C(=O)NCC(=O)N[C@@H](CC(=O)O)C(=O)N[C@@H](CCCCN)C(=O)NCC(=O)N[C@@H](CC(N)=O)C(=O)N1CCC[C@H]1C(=O)NCC(=O)N[C@@H](Cc1c[nH]c2ccccc12)C(=O)N1CCC[C@H]1C(=O)NCC(=O)N[C@@H](C)C(=O)N1CCC[C@H]1C(=O)O,microchemotaxis chamber,"K1735 M4 melanoma, mouse","100 to 200 µg/mL filter coating, 6 h, peptide-coated filters",relative to: BSA-coated control,maximal cell motility,5 fold
Cc1cc(Nc2cc3ncccc3c(N[C@@H]3C[C@H]4CC[C@@H](C3)N4CCC#N)n2)n[nH]1,,moderate-severe ulcerative colitis patients,"80 mg, day 28",relative to: patients,endoscopic improvement,30%
CC(=O)N/C(N)=N/C(=N\S(=O)(=O)c1ccc(C(F)(F)F)cc1)N1C[C@H](c2ccccc2)C(c2ccc(Cl)cc2)=N1,intraperitoneal insulin sensitivity test,"β-arrestin 2 knockout mouse, diet-induced obese",3 mg/kg/day,,insulin sensitivity,no effect
C=CC(=O)Nc1cc(Nc2nccc(-n3ccc4nc(OC)ccc43)n2)c(OC)cc1N(C)CCN(C)C,,human,"40 mg once daily, 14 weeks",,tumour shrinkage,50.3%
CCC1C=CC2CCN(C(=O)C3CCC4C=CC5(CCCN5C(=O)C(Cc5ccccc5Cl)NC(C)=O)C(=O)N43)C2C(=O)N1CC(=O)OC (centres unmarked),,"mouse, orthotopic PANC-1 xenograft","subcutaneous, 100 mg/kg twice daily, 48 d",,primary tumour size,no effect
S=c1n(CN2CCN(c3ccccc3)CC2)nc(C23CC4CC(CC(C4)C2)C3)n1-c1ccccc1,,rat carrageenan paw oedema,"intraperitoneal, 20 mg/kg, 4 h after carrageenan",relative to: vehicle control,paw oedema inhibition,22.5 ± 5.25%
Cc1cc(NC(=O)[C@H](O)c2cc(F)cc(F)c2)ccc1-c1cnc(N)c(C(=O)NC(C)C)c1,refers to: phospho-PERK,"mouse, pancreas","oral, 30 mg/kg single",,time to pPERK baseline,≤ 12 h
C[C@@H](NC(=O)Cc1ccc(Cl)c(SC2C(=O)CC(c3c(Cl)cccc3Cl)CC2=O)c1)c1cccc2ccccc12 (some centres unmarked),,"C57BL/6 mice, B16-F10 melanoma allograft, tumour","intratumoral, 50 mg/kg daily for 7 days, 6 h after last dose",,lactate level,decreased
CC[C@H]1[C@@H](O)[C@@H]2[C@H](CC[C@]3(C)[C@@H]([C@H](C)CCOS(=O)(=O)[O-])CC[C@@H]23)[C@@]2(C)CC[C@@H](O)C[C@@H]12.[Na+],histology,"ob/ob NASH mouse model, liver","oral, 10 mg/kg once daily, before treatment, baseline of 8 week study",direction not given,NAFLD activity score,6.4 ± 0.2
CCCN(c1ccc(C(=O)NCCC(=O)O)cc1)S(=O)(=O)c1cc(C)c(-c2ccc(C(C)(C)C)cc2)c(C)c1,glucagon challenge test,"mouse, HFD-induced obese","oral, 50 mg/kg, together with: glucagon 15 µg/kg ip",,glucose AUC,decreased
CCCCOCc1cn(-c2cc(Cl)ccc2Cl)nn1,prothrombin time,human plasma,1 µM,,clotting time,15.8 ± 1 s
CCC(NC(=O)C(CC(C)C)NC(=O)CCc1ccccc1)C(=O)C(=O)NCc1cc(F)cc(OC)c1 (centres unmarked),TUNEL,mouse traumatic brain injury model (controlled cortical impact),up to 10 mg/kg,,neuronal damage,no effect
COc1ccc(-n2cc(CO)nn2)cc1,aPTT,human plasma,1 µM,,clotting time,44.5 ± 0.6 s
COc1ccc(C2CC(c3ccc(C)cc3)=Nc3ccccc3S2)cc1 (centres unmarked),,"Wistar rat, STZ-induced diabetes","oral, 10 mg/kg once daily, day 7",,blood glucose,292 ± 4.71 mg/dL
C[C@H](NC(=O)COC(=O)[C@H](C)NC(=O)CO)C(=O)O,,water,"pH 6, 25 °C",,depolymerization rate constant,0.249 h⁻¹
C=C(c1ccc(C(=O)O)c(F)c1)c1cc2c(cc1C)C(C)(C)C=CC2(C)C,"RNA sequencing, refers to: Alb mRNA","rat, brain","dose not given, 24 h, single dose",relative to: vehicle,log2 fold change,-2.54
O/N=C/c1cnn(-c2ccccc2)n1,plasma recalcification time,human plasma,10 µM,,clotting time,337 ± 36 s
CCOP(=O)(OCC)OCCCCOC(=O)C(C)c1ccc(CC(C)C)cc1 (centres unmarked),immunofluorescence,"rat, AOM-induced colon cancer, colon","dose not given, 40 weeks",,phospho-p65 level,inhibited
C[C@H]1CN(C(=O)c2cn(-c3ccnc(N)n3)c3cc(C#CC4(O)CCCCC4)ccc23)CCN1,,"B16-BL6, mice, lung metastasis model","intravenous, 25 mg/kg daily",,mice with lung metastases,44.2%
CCCCCCCCCCCCCCCC(=O)N[C@@H](CCC(=O)NCCCC[C@H](NC(=O)[C@H](CC(=O)O)NC(=O)[C@H](CO)NC(=O)[C@@H](NC(=O)[C@H](Cc1ccccc1)NC(=O)[C@@H](NC(=O)CNC(=O)[C@H](CCC(N)=O)NC(=O)[C@H](CO)NC(=O)[C@@H](N)Cc1c[nH]cn1)[C@@H](C)O)[C@@H](C)O)C(=O)N[C@@H](CO)C(=O)N[C@@H](CCC(=O)O)C(=O)N[C@@H](Cc1ccc(O)cc1)C(=O)N[C@@H](CC(C)C)C(=O)N[C@@H](CC(=O)O)C(=O)N[C@@H](CO)C(=O)N[C@@H](CCC(=O)O)C(=O)N[C@@H](CCCNC(=N)N)C(=O)N[C@@H](C)C(=O)N[C@@H](CCCNC(=N)N)C(=O)N[C@@H](CC(=O)O)C(=O)N[C@@H](Cc1ccccc1)C(=O)N[C@H](C(=O)N[C@@H](C)C(=O)N[C@@H](Cc1c[nH]c2ccccc12)C(=O)N[C@@H](CC(C)C)C(=O)N[C@@H](CCC(=O)O)C(=O)N[C@@H](C)C(=O)NCC(=O)NCC(=O)O)C(C)C)C(=O)O,intraperitoneal glucose tolerance test,diet-induced obese mouse,"subcutaneous, 1 nmol/kg, 1 h before glucose, together with: glucose 1.5 g/kg intraperitoneal",,glucose AUC,877 mmol·min/L
CC(C)OC(=O)[C@H](CO)NCc1cc(Cl)c(OCc2cccc(-c3ccccc3)c2Br)cc1OCc1cccnc1,,"hPD-L1 MC-38 tumour, humanised hPD-1 C57BL/6 mouse","oral, 2.5 mg/kg × 21",,tumour weight inhibition,40.5%
CCCCCCCCCC(=O)OCc1cn(-c2ccc(Cl)cc2)nn1,prothrombin time,human plasma,1 µM,,clotting time,16.4 ± 2 s
Nn1c(S)nnc1CCN(c1ccc(Cl)cc1)S(=O)(=O)c1ccccc1,paw oedema,rat carrageenan oedema,"200 mg/kg, 3 h",,inhibition,51.4%
C=C(c1cc(F)c(C(=O)O)c(F)c1)c1cc2c(cc1C)C(C)(C)CCC2(C)C,"RNA sequencing, refers to: Lrrc4c mRNA","rat, brain","dose not given, 24 h, single dose",relative to: vehicle,log2 fold change,-0.44
Cc1nc(C)c(C=[N+]([O-])C(C)(C)C)nc1C,HPLC-ECD,MPTP-treated mice,30 mg/kg,,striatal dopamine increase,16.8%
Cc1cc2c(cc1C1(c3ncc(C(=O)O)cn3)CC1)C(C)(C)CCC2(C)C,"RNA sequencing, refers to: Nmb","rat, brain","dose not given, 24 h",relative to: vehicle,log2 fold change,0.2
OCc1cnn(-c2ccccc2)n1,prothrombin time,human plasma,10 µM,,clotting time,15.4 ± 0.8 s

# For quick reference, copied from above:
SMILES,assay,system,setting,how to read,quantity,result
CC(C)[C@H](NC(=O)CN)C(=O)N[C@@H](CCCCN)C(=O)NCC(=O)N[C@@H](CC(=O)O)C(=O)N[C@@H](CCCCN)C(=O)NCC(=O)N[C@@H](CC(N)=O)C(=O)N1CCC[C@H]1C(=O)NCC(=O)N[C@@H](Cc1c[nH]c2ccccc12)C(=O)N1CCC[C@H]1C(=O)NCC(=O)N[C@@H](C)C(=O)N1CCC[C@H]1C(=O)O,microchemotaxis chamber,"K1735 M4 melanoma, mouse","100 to 200 µg/mL filter coating, 6 h, peptide-coated filters",relative to: BSA-coated control,maximal cell motility,5 fold
Cc1cc2c(cc1C1(c3ncc(C(=O)O)cn3)CC1)C(C)(C)CCC2(C)C,"RNA sequencing, refers to: Nmb","rat, brain","dose not given, 24 h",relative to: vehicle,log2 fold change,0.2
"C=C1C(=O)OC2C1CCC1(C)OC13CC1OC1(C)C23 (single isomer, unassigned)",,"breast cancer RMK-1, outbred white rat","intraperitoneal, maximum tolerated dose, daily, 5 days",,tumour growth inhibition,59 to 88%
COc1ccc2c(c1)c(CC(=O)OCOC(C)=O)c(C)n2C(=O)c1ccc(Cl)cc1,hot plate test,BALB/c mice,"100 mg/kg, 30 min",,latency of nociceptive response,17.4 ± 0.86 s
